{"data": "Measurements from different studies", "note": "Lines come from different studies, so protocols differ.", "sequence of UniProt P10632 (whole entry, looked up)": "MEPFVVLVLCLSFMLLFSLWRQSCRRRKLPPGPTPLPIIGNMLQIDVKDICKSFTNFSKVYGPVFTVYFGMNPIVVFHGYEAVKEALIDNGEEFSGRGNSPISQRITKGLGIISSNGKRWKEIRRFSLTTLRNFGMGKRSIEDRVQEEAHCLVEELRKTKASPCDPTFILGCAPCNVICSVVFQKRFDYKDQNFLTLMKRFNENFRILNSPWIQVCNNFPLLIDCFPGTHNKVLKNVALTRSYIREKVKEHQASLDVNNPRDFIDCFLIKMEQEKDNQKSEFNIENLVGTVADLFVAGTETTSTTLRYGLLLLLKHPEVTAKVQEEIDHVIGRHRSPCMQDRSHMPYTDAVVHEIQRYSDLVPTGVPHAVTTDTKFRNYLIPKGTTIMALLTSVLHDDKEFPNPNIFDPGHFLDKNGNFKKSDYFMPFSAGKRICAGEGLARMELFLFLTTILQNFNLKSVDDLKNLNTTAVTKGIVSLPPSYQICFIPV", "sequence of UniProt P08183 (whole entry, looked up)": "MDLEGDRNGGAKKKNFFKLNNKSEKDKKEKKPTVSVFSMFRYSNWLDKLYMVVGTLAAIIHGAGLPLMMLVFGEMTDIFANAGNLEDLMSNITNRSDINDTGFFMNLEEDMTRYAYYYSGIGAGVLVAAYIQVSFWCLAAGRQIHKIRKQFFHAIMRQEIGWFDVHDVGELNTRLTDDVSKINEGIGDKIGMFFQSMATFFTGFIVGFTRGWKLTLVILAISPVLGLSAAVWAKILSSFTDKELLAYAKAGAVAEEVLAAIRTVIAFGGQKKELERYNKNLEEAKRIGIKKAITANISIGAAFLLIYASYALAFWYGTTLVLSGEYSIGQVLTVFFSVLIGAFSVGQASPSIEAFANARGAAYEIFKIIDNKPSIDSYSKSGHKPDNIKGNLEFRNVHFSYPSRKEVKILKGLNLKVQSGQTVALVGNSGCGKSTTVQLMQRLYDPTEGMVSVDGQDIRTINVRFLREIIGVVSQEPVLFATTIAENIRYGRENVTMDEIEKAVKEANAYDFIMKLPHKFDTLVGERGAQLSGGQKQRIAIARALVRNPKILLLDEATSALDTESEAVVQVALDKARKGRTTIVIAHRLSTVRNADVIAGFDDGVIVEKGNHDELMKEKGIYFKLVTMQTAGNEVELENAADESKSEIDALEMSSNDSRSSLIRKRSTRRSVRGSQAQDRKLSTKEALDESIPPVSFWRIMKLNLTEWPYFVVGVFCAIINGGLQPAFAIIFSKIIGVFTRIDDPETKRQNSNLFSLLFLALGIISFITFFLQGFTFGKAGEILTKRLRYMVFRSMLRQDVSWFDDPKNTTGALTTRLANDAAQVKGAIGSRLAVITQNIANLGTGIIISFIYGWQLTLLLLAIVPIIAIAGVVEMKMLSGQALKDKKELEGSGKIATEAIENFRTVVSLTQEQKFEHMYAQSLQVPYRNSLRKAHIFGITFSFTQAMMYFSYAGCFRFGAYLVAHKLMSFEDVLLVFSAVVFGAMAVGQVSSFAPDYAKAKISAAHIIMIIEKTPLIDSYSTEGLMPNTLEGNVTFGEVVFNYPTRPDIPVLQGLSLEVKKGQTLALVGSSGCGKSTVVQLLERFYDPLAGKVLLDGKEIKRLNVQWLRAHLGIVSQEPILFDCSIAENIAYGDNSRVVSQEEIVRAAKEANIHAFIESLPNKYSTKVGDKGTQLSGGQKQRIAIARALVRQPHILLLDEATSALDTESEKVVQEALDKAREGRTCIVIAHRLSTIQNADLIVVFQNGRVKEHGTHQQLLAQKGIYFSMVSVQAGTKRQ"}
{"Compound": "CCn1cc(C(=O)N2CCOCC2)c(=O)c2cc(NC3Cc4ccccc4C3)cnc21", "system": "human, fed", "setting": "oral suspension, 1200 mg/day twice daily, day 8, median", "endpoint": "Tmax", "result": "2.5 h"}
{"Compound": "Cl.[2H]C([2H])([2H])CC(=O)c1cnc(NC(=O)C2CC2)cc1Nc1cccc(-c2ncn(C([2H])([2H])[2H])n2)c1OC", "assay": "median", "system": "human", "setting": "oral, 10 mg once daily, day 7, fasted, liquid, multiple dose", "endpoint": "Tmax", "result": "1.57 h"}
{"Compound": "CCOc1c([C@H](C)n2nc(C)c3c(N)ncnc32)cc(Cl)c(F)c1[C@@H]1CNC(=O)C1", "system": "patients with indolent lymphoma, plasma", "setting": "oral, 20 mg, day 15, monotherapy", "endpoint": "Tmax", "result": "0.5 h"}
{"Compound": "Cn1cc(-c2ccc(-c3cncc(Cl)c3N3CCC4(CCNC4=O)CC3)cc2)cn1", "tested on": "COLO 205", "assay": "gene expression, microarray, refers to: NUF2 mRNA", "setting": "concentration not given, 2 h", "how to read": "relative to: untreated cells", "endpoint": "log2 fold change", "result": -1.59}
{"Compound": "CCCCC1=NC2(CCCC2)C(=O)N1Cc1ccc(-c2ccccc2S(=O)(=O)Nc2noc(C)c2C)c(COCC)c1", "system": "healthy adult volunteers, plasma", "setting": "oral, 800 mg, single dose, fasted, crushed tablet", "endpoint": "Tmax", "result": "4.25 h"}
{"Compound": "Cc1cc(Nc2ncnc3ccc(NC4=NC(C)(C)CO4)cc23)ccc1Oc1ccn2ncnc2c1", "tested on": "Cytochrome P450 2C8 (CYP2C8, Homo sapiens, UniProt P10632)", "system": "human, plasma", "setting": "oral, 300 mg single, day 1, median", "endpoint": "AUC extrapolated fraction", "result": "1.4%"}
{"Compound": "Cc1nc(-c2cnc(NC(C)C)n(C)c2=O)ccc1Oc1ccnc(-c2cnn(C)c2)c1", "system": "Beagle dog, male, plasma", "setting": "intravenous, 1 mg/kg", "endpoint": "Tmax", "result": "0.14 h"}
{"Compound": "O=C(O)CCC(=O)O.[2H]C([2H])([2H])Oc1cc(C)c2[nH]ccc2c1CN1CC[C@@H](C2CC2)C[C@H]1c1ccc(C(=O)O)cc1", "assay": "LC-MS/MS, median", "system": "human, plasma", "setting": "600 mg, single dose, fasting", "endpoint": "Tmax", "result": "4 h"}
{"Compound": "Cn1c(C(F)(F)F)cc(=O)n(-c2cc(Oc3cccnc3OCC(=O)O)c(Cl)cc2F)c1=O", "system": "beagle dog, female, plasma", "setting": "oral capsule, 100 mg/kg/day epyrifenacil, week 13, 90-day study", "endpoint": "Tmax", "result": "3.5 h"}
{"Compound": "CCN1CCN(Cc2ccc(Nc3ncc(F)c(-c4cc(F)c5nc6n(c5c4)[C@H](C)CCC6)n3)nc2)CC1", "system": "human, plasma", "setting": "100 mg multiple dosing, median", "endpoint": "Tmax", "result": "3.98 h"}
{"Compound": "COc1ccc(C[C@@H](C)[C@@H](C)Cc2ccc(OC)c(OC)c2)cc1OC", "system": "beagle dog female, plasma", "setting": "oral, 300 mg/kg/day, day 28, median", "endpoint": "Tmax", "result": "1 h"}
{"Compound": "CCNCc1nc2c(N)nc3ccccc3c2n1CC(C)(C)O", "tested on": "Toxoplasma gondii", "assay": "parasite growth", "system": "HFF, bradyzoite, alkaline-induced", "endpoint": "EC50", "result": "3.53 mM"}
{"Compound": "CC[C@H]1[C@@H](O)[C@@H]2[C@H](CC[C@]3(C)[C@@H]([C@H](C)CCNC(=O)NS(=O)(=O)c4ccc(C(C)(C)C)cc4)CC[C@@H]23)[C@@]2(C)CC[C@@H](O)C[C@@H]12", "tested on": "ABCB1 (Homo sapiens, UniProt P08183)", "assay": "substrate", "system": "human, plasma", "setting": "dose not given, added: quinidine", "endpoint": "AUC(0-inf) mean", "result": "388 ng·h/mL"}
{"note": "Some of these lines once more:"}
{"Compound": "CCn1cc(C(=O)N2CCOCC2)c(=O)c2cc(NC3Cc4ccccc4C3)cnc21", "system": "human, fed", "setting": "oral suspension, 1200 mg/day twice daily, day 8, median", "endpoint": "Tmax", "result": "2.5 h"}
